# Published values from different studies.
# Protocols differ between the studies behind these lines. ± gives the spread as reported.
Compound,test,system,conditions,quantity,value
CC[C@@H]1CN(C(=O)NCC(F)(F)F)C[C@@H]1c1cnc2cnc3[nH]ccc3n12,population PK modelling,human,"oral, extended-release formulation, outliers re-estimated",absorption rate constant (Ka),0.0433 h⁻¹
NC(=O)N1c2ccccc2CC(=O)c2ccccc21,population PK model,human,oral,absorption rate constant,0.269 h⁻¹
COc1cc(N2CCC3(CCN(C)CC3)CC2)ccc1Nc1ncc(Cl)c(Nc2ccccc2P(C)(C)=O)n1,population PK model,human fed,"oral, base structural model",absorption lag time,0.473 h
CNC(=O)c1c(C)oc2cc(Oc3ncnc4cc(OC)c(OC)cc34)ccc12,final population PK model,human,"oral, no proton pump inhibitor",absorption rate constant ka,2.52 per h
NCC(=O)Nc1cncc(-c2nn3c(=O)cc(N4CCNCC4)nc3s2)c1,population PK model,human,"subcutaneous, geometric mean",absorption rate constant (Ka),8.1 h⁻¹
COC(=O)N[C@H](C(=O)N1CCC[C@H]1c1nc(-c2ccc(-c3ccc(-c4c[nH]c([C@@H]5CCCN5C(=O)[C@@H](NC(=O)OC)C(C)C)n4)cc3)cc2)c[nH]1)C(C)C,population PK full model,human,oral,absorption rate constant,0.867 h⁻¹
COc1ccc(-n2nc(C(N)=O)c3c2C(=O)N(c2ccc(N4CCCCC4=O)cc2)CC3)cc1,,"human, plasma","oral, Full population PK model",absorption rate constant,0.485 ± 0.0204 h⁻¹
NC(N)=NCCC[C@@H](N)C(=O)N[C@@H](CCCN=C(N)N)C(=O)N1CCC[C@H]1C(=O)N1C[C@H](O)C[C@H]1C(=O)NCC(=O)N[C@@H](Cc1cccs1)C(=O)N[C@@H](CO)C(=O)N1Cc2ccccc2C[C@@H]1C(=O)N1[C@H](C(=O)N[C@@H](CCCN=C(N)N)C(=O)O)C[C@@H]2CCCC[C@@H]21,popPK full model bootstrap median,human,subcutaneous,absorption lag time,0.0428 h
NC1(C(=O)N[C@@H](CCO)c2ccc(Cl)cc2)CCN(c2nc[nH]c3nccc2-3)CC1,,human,,absorption rate constant ka,0.441 h⁻¹
Nc1nc2cccc(-c3ccc(CN4CCS(=O)(=O)CC4)cc3)n2n1,population PK bootstrap median,human,,absorption rate constant,0.478 h⁻¹
CN1CC[C@@H](NC(=O)Nc2ccc(C#N)cc2)C[C@@H]1c1nc2ccccc2[nH]1,,"human cancer patients, plasma","oral, population PK base model",absorption rate constant ka,0.07 h⁻¹
Cc1cn(-c2cc(NC(=O)c3ccc(C)c(Nc4nccc(-c5cccnc5)n4)c3)cc(C(F)(F)F)c2)cn1,"population PK model, typical value","human, plasma","oral, fasted state",absorption lag time (ALAG1),0.0866 h
C=C[C@@H]1C[C@]1(NC(=O)[C@@H]1C[C@@H](Oc2ncc(OC)c3ccc(Cl)cc23)CN1C(=O)[C@@H](NC(=O)OC(C)(C)C)C(C)(C)C)C(=O)NS(=O)(=O)C1CC1,population PK full model,human,oral,absorption rate constant,0.228 h⁻¹
CC(C)N(CCCCOCC(=O)NS(C)(=O)=O)c1cnc(-c2ccccc2)c(-c2ccccc2)n1,,"healthy human, plasma","oral, population estimate",absorption rate constant,1.08 h⁻¹
NC(=O)c1cnc2[nH]ccc2c1N[C@@H]1[C@@H]2CC3C[C@H]1C[C@@](O)(C3)C2,,"healthy human volunteers, plasma","oral, population PK model, bootstrap median",absorption rate constant,4.99 h⁻¹
O=C(O)[C@H]1/C(=C/CO)O[C@@H]2CC(=O)N21,population PK,"human, plasma",,absorption rate constant,0.801 h⁻¹
Cn1cnc2c(F)c(Nc3ccc(Br)cc3Cl)c(C(=O)NOCCO)cc21,population PK model,"human, plasma","oral, nonlinear absorption model, fasted",absorption lag time,0.4 h
C[C@@H]1CCO[C@H]2Cn3cc(C(=O)NCc4ccc(F)cc4F)c(=O)c(O)c3C(=O)N12,population PK model,"paediatric humans, plasma","oral, film-coated tablet",absorption rate constant,0.854 h⁻¹

# Excerpt of the above:
Compound,test,system,conditions,quantity,value
O=C(O)[C@H]1/C(=C/CO)O[C@@H]2CC(=O)N21,population PK,"human, plasma",,absorption rate constant,0.801 h⁻¹
